Experimental data collected from several papers.
Compare with care: the assays were run in different laboratories. Numbers after ± are the reported error.

SMILES | technique | species | medium | route | dose | time | tissue uptake
CC(C)[C@H](NC(=O)[C@@H]1CCCN1C(=O)[C@H](CCCNC(=N)N)NC(=O)[C@H](CS)NC(=O)[C@H](Cc1c[nH]c2ccccc12)NC(=O)[C@H](CCCNC(=N)N)NC(=O)[C@@H](Cc1ccccc1)NC(=O)[C@H](Cc1c[nH]cn1)NC(=O)[C@H](CCC(=O)O)NC(=O)[C@H](CS)NC(=O)[C@H](CS)NC(=O)CNC(=O)[C@@H]1CC(=O)N[C@@H](CCCNC(=N)N)C(=O)NCC(=O)N[C@@H](CC(=O)O)C(=O)N[C@H](Cc2ccc(O)cc2)C(=O)N1)C(N)=O [technetium-99m labelled] | – | C57 mouse, female, B16/F1 melanoma | blood | intravenous | 0.037 MBq | 0.5 h | 5.07 ± 3.4 %ID/g
CCCC[C@H](NC(=O)CNC(=O)CNC(=O)CN1CCN(CC(=O)O)CCN(CC(=O)O)CC1)C(=O)N[C@H]1CC(=O)NCCCC[C@@H](C(N)=O)NC(=O)[C@H](Cc2c[nH]c3ccccc23)NC(=O)[C@H](CCCNC(=N)N)NC(=O)[C@@H](Cc2ccccc2)NC(=O)[C@H](Cc2c[nH]cn2)NC1=O [copper-64 labelled] | – | female C57 mouse, B16/F1 melanoma | liver | intravenous | 0.037 MBq | 4 h | 0.75 ± 0.17 %ID/g
CCCC[C@H](NC(=O)CNC(=O)CNC(=O)CN1CCN(CC(=O)O)CCN(CC(=O)O)CC1)C(=O)N[C@H]1CC(=O)NCCCC[C@@H](C(N)=O)NC(=O)[C@H](Cc2c[nH]c3ccccc23)NC(=O)[C@H](CCCNC(=N)N)NC(=O)[C@@H](Cc2ccccc2)NC(=O)[C@H](Cc2c[nH]cn2)NC1=O [gallium-67 labelled] | – | female C57 mice, B16/F1 melanoma | brain | intravenous | 0.037 MBq | 2 h | 0.11 ± 0.07 %ID/g
O=C([O-])CN1CCN(CC(=O)[O-])CCN(CC(=O)NCCc2ccc3c(c2)C2C=CCC2C(c2cc4c(cc2Br)OCO4)N3)CCN(CC(=O)[O-])CC1.[111In+3] (stereo not drawn) | – | mouse, Hec50 endometrial tumour | lungs | – | – | 0.5 h post injection | 4.98 ± 0.84 %ID/g
O=C(O)C1CN(Cc2ccc(-c3noc(-c4ccc(OCC[18F])c(C(F)(F)F)c4)n3)cc2)C1 | – | male Sprague-Dawley rat | muscle | intravenous | – | 30 min | 0.145 ± 0.013 %ID/g
C[C@H](CN(C)Cc1ccccc1)NC(=O)c1ccc(-c2noc(C(F)(F)[18F])n2)cc1 | PET imaging | female Sprague-Dawley rats | muscle | intravenous | – | 60 min | 0.59 ± 0.15 SUV
CCCC[C@H](NC(=O)CNC(=O)CNC(=O)CN1CCN(CC(=O)O)CCN(CC(=O)O)CCN(CC(=O)O)CC1)C(=O)N[C@H]1CC(=O)NCCCC[C@@H](C(N)=O)NC(=O)[C@H](Cc2c[nH]c3ccccc23)NC(=O)[C@H](CCCNC(=N)N)NC(=O)[C@@H](Cc2ccccc2)NC(=O)[C@H](Cc2c[nH]cn2)NC1=O [lead-203 labelled] | – | C57 mouse | spleen | intravenous | 0.056 MBq | 4 h | 0.26 ± 0.2 %ID/g
CN(C)c1ccc(-c2nc3ccc(OCCCCCN4CCN5CCN(CC4)CC(=O)[O][Al]([18F])[O]C(=O)C5)cc3s2)cc1 | – | ICR mouse | bone | intravenous | – | 10 min | 1.97 ± 0.79 %ID/g
CCCC[C@@H]1NC(=O)[C@@H](NC(=O)[C@H](CCC(=O)O)NC(=O)CNC(=O)CN2CCN(CC(=O)O)CCN(CC(=O)O)CCN(CC(=O)O)CC2)CCCCNC(=O)C[C@@H](C(N)=O)NC(=O)[C@H](C(C)C)NC(=O)[C@@H]2CCCN2C(=O)[C@H](CCCNC(=N)N)NC(=O)CNC(=O)[C@H](Cc2c[nH]c3ccccc23)NC(=O)[C@H](CCCNC(=N)N)NC(=O)[C@@H](Cc2ccccc2)NC(=O)[C@H](Cc2c[nH]cn2)NC(=O)[C@H](CCC(=O)O)NC1=O [gallium-67 labelled] | – | C57 mice, B16/F1 flank melanoma | bone | intravenous | 0.037 MBq/mouse | 24 h | 0.21 ± 0.2 %ID/g
